Measurements collected from several papers.
A part holds a random share of what one study measured. Positions count from the first letter of the parent shown.

Block 1 — method: DHFR PCA, deep sequencing; medium: yeast; with: (+)-ABA 58 µM; reference: wild-type fitted maximum; reading: higher = stronger binding
Target: ABI1, truncated, D143A, DHFR fusion (Arabidopsis thaliana)
Setting: methotrexate growth selection, single substitutions
Parent: PYL1, truncated, DHFR fusion (Arabidopsis thaliana); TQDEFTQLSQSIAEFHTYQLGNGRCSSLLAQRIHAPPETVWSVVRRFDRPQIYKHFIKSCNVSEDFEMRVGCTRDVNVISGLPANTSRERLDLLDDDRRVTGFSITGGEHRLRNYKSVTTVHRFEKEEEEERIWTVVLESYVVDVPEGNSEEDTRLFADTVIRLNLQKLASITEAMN
`H16A` — result for “relative binding score”: 3.06%.
For `R49E`, “relative binding score” read 79%.
Under “relative binding score”, `S171F` is recorded as 69.5%.
For `H110V`, “relative binding score” read -0.857%.
For `S59M`, “relative binding score” read 66%.
`E125H`: “relative binding score” 97.8%.
Under “relative binding score”, `F5K` is recorded as 92.9%.
`M68W` — result for “relative binding score”: 66.1%.
Under “relative binding score”, `S117R` is recorded as -11.9%.
Under “relative binding score”, `E131S` is recorded as 95.9%.
Under “relative binding score”, `I12K` is recorded as 53.4%.
`G102C` — result for “relative binding score”: 33.6%.
Under “relative binding score”, `P50D` is recorded as -5.8%.
Under “relative binding score”, `N22G` is recorded as 91%.
`T73V`: “relative binding score” 89.6%.

Block 2 — method: protein binding microarray; form: double-stranded DNA, one strand shown; medium: in vitro; concentration: not given; reference: not given; reading: higher = stronger binding
Target: Histone acetyltransferase KAT6A, winged helix 2, GST fusion (KAT6A, Homo sapiens, UniProt Q92794, residues 85-181)
Setting: 8-mer, flanks averaged, mean of 2 arrays, mostly near background
Construct (chain): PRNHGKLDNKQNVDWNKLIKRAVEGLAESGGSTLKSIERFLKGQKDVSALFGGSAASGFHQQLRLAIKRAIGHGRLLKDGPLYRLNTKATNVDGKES
For `CTATGCCA`, the E-score was -0.121.
For `AGAAGTCT`, the E-score was -0.222.
The E-score of `TCCAGGAA` is reported as 0.0272.
`ATTGACAG` has an E-score of 0.0181.
`ACCGTGCG` has an E-score of 0.229.
The E-score of `CGGCTCGA` is reported as 0.214.
For `GCGACATA`, the E-score was 0.0936.
`ACGGTTAC` has an E-score of -0.061.
`ACTACACC` gave an E-score of -0.0435.
The E-score of `GATCATGC` is reported as 0.00154.
`AGATTGGA` has an E-score of -0.024.
`GTACCGAC` has an E-score of -0.0398.
The E-score of `AGCGCACT` is reported as -0.0315.
`CTATTTCC` gave an E-score of -0.0334.
`TACGATCA` has an E-score of -0.117.
`CAAATTAA` gave an E-score of 0.0332.
The E-score of `GACGAAGA` is reported as 0.0846.
For `CTGCATGC`, the E-score was 0.14.
`GAAGGATA` gave an E-score of -0.0714.

Block 3 — target: UBE2H UBC core domain (UniProt P62256); method: yeast two-hybrid; medium: yeast; setting: mostly zero background; reference: not given; reading: higher = stronger interaction
Sequence of UniProt P62256 (whole entry, looked up): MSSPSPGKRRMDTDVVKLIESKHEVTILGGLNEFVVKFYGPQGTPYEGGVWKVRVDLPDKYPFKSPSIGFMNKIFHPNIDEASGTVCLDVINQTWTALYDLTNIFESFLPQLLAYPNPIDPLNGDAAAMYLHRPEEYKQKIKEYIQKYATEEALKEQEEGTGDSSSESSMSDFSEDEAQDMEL
B1: RC3H2 RING domain (UniProt Q9HBD1); chain QAAQWTEFLSCPICYNEFDENVHKPISLGCSHTVCKTCLNKLHRKACPFDQTAINTDIDVL
B2: TRIM63 RING domain (UniProt Q969Q1); chain PMENLEKQLICPICLEMFTKPVVILPCQHNLCRKCANDIFQAANPYWTSRGSSVSMSGGRFRCPTCRHEVIMDRHGV
B3: TRIM69 RING domain (UniProt Q86WT6); chain VIQDITMELHCPLCNDWFRDPLMLSCGHNFCEACIQDFWRLQAKETFCPECKMLCQYNNCTF
B4: CUL9 RING domain (UniProt Q8IWT3); chain AQAVPVRPDHCPVCVSPLGCDDDLPSLCCMHYCCKSCWNEYLTTRIEQNLVLNCTCPIADCPAQPTGAFIR
B5: TRIM8 RING domain (UniProt Q9BZR9); chain WKNCFEEELICPICLHVFVEPVQLPCKHNFCRGCIGEAWAKDSGLVRCPECNQAYNQKPGLE
B6: IRF2BPL RING domain (UniProt Q9H1B7); chain SPMANSGPLCCTICHERLEDTHFVQCPSVPSHKFCFPCSRESIKAQGATGEVYCPSGEKCPLVGSNVP
Under “lacZ reporter activity”, `B1 (RC3H2 RING domain)` is recorded as 0.
`EDEVSDNSAECVVCLSDVRDTLILPCRHLCLCNTCADTLRYQANNCPICRLPFRALLQIR (RNF157 RING domain (UniProt Q96PX1))`: “lacZ reporter activity” 0.
Under “lacZ reporter activity”, `RLTMMWEEVTCPICLDPFVEPVSIECGHSFCQECISQVGKGGGSVCPVCRQRFLLKNLRP (TRIM21 RING domain (UniProt P19474))` is recorded as 0.
For `DDENSDNSNECVVCLSDLRDTLILPCRHLCLCTSCADTLRYQANNCPICRLPFRALLQIR (MGRN1 RING domain (UniProt O60291))`, “lacZ reporter activity” read 0.
For `QLQDIKEQTMCPVCLDRLKNMIFLCGHGTCQLCGDRMSECPICRKAIERRILLY (MIB1 RING domain (UniProt Q86YT6))`, “lacZ reporter activity” read 0.
`QLRRLQEERTCKVCMDKEVSIVFIPCGHLVVCKDCAPSLRKCPICRSTIKGTVRTF (BIRC3 RING domain (UniProt Q13489))`: “lacZ reporter activity” 0.
Under “lacZ reporter activity”, `B2 (TRIM63 RING domain)` is recorded as 0.
`B3 (TRIM69 RING domain)` — result for “lacZ reporter activity”: 0.
For `B4 (CUL9 RING domain)`, “lacZ reporter activity” read 0.
`B5 (TRIM8 RING domain)` — result for “lacZ reporter activity”: 0.
Under “lacZ reporter activity”, `YWAMDSTFELCKICAESNKDVKIEPCGHLLCSCCLAAWQHSDSQTCPFCRCEIKGWEAVS (CBLC RING domain (UniProt Q9ULV8))` is recorded as 0.
`B6 (IRF2BPL RING domain)` — result for “lacZ reporter activity”: 0.
Under “lacZ reporter activity”, `FPEHFVKSISCQICEHILADPVETNCKHVFCRVCILRCLKVMGSYCPSCRYPCFPTDLES (RAG1 RING domain (UniProt P15918))` is recorded as 0.

Block 4 — target: CCNE2, cyclin fold, Cln2 fusion (human); method: yeast growth competition, sequencing; medium: yeast; setting: weak parent motif; reference: not given; reading: higher = stronger binding
Parent: PKMYT1 docking peptide (human); SFEPRNLLSLFED
Under “normalised enrichment score”, `SFEPRNLLSSFED [L10S]` is recorded as -0.261.
`SFEPRNLLILFED [S9I]`: “normalised enrichment score” 0.4.
`SFEPRNLKSLFED [L8K]`: “normalised enrichment score” 0.332.
For `SWEPRNLLSLFED [F2W]`, “normalised enrichment score” read 0.0653.
`SFEPSNLLSLFED [R5S]` — result for “normalised enrichment score”: -0.206.
Under “normalised enrichment score”, `SFEPRNLCSLFED [L8C]` is recorded as -0.228.
`SFQPRNLLSLFED [E3Q]`: “normalised enrichment score” 0.509.
Under “normalised enrichment score”, `SFSPRNLLSLFED [E3S]` is recorded as 0.0628.
`SFEPRNLLSLMED [F11M]`: “normalised enrichment score” -0.3.
`SFEPRNLLKLFED [S9K]` — result for “normalised enrichment score”: -0.176.
`SFEPRNLLQLFED [S9Q]`: “normalised enrichment score” 0.0807.
For `SFEPRNLNSLFED [L8N]`, “normalised enrichment score” read 0.237.
`SFEPRNLLSLFEI [D13I]` — result for “normalised enrichment score”: 0.282.
`SFEPRWLLSLFED [N6W]`: “normalised enrichment score” -0.00365.
`SFEPDNLLSLFED [R5D]` — result for “normalised enrichment score”: 0.41.
`SFEPRNMLSLFED [L7M]`: “normalised enrichment score” -0.779.
Under “normalised enrichment score”, `SFEPRNLLSIFED [L10I]` is recorded as -0.0231.
`SFEIRNLLSLFED [P4I]`: “normalised enrichment score” -1.36.

For quick reference, copied from above (block 1):
Under “relative binding score”, `S171F` is recorded as 69.5%.
Under “relative binding score”, `F5K` is recorded as 92.9%.
For `S59M`, “relative binding score” read 66%.
For `R49E`, “relative binding score” read 79%.
`M68W` — result for “relative binding score”: 66.1%.
Under “relative binding score”, `E131S` is recorded as 95.9%.
Under “relative binding score”, `N22G` is recorded as 91%.
For `H110V`, “relative binding score” read -0.857%.
